Measured values pooled from the literature.
Numbered parts are unrelated; each lists some results of a single study.

Study 1
Target: Interferon regulatory factor 7, full length, phosphomimetic (IRF7, Homo sapiens, UniProt Q92985, residues 1-503, S471D/S472D/S475D/S476D/S477D/S483D/S484D/S487D)
Chain of UniProt Q92985 (whole entry, unmodified, looked up): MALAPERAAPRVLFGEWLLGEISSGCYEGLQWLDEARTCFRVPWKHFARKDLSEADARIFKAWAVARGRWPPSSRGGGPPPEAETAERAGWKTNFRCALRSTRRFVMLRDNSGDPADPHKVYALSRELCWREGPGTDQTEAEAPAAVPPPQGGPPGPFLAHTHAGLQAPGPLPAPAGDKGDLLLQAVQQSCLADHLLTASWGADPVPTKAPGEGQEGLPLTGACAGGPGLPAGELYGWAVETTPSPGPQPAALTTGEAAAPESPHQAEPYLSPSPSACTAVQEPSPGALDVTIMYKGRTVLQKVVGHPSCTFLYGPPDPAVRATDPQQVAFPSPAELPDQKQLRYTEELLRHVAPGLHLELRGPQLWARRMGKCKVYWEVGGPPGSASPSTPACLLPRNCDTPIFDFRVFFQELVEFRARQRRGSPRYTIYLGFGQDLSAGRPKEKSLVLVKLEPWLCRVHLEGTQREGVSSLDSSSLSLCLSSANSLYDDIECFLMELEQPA
Technique: protein-binding microarray
Form: double-stranded DNA, one strand shown
Medium: in vitro
Tested at: 2200 nM top
Setting: 60-bp whole probe
With: salmon DNA 0.4 mg/ml
Relative to: random background probes
Direction: higher = stronger binding
Shared flanks, not repeated: GCCTAGCAC … GTCTTGATTCGCTTGACGCTGCTG
Sequence	fitted relative affinity [z-score]
TTAGGTCTCCTTCTCCTTTGGTGCTAG	1.17
TTAGATAACGGGTTTCGATTAGTGCTA	2.17
TTAGGACTGGGGACTAGGTTAGTGCTA	-1.07
GACGGCCTCCTTTTCCTGACGTGCTAG	1.13
GACAGACTGCTACTGCTGACGTGCTAG	-0.169
TTAGGTCTCCTACTGCCTTAGTGCTAG	0.735
TTTCCTTTATGTACTCTCTACGTGCTA	4.38

Study 2
Target: Sal-like protein 4, full length isoform B (SALL4, Homo sapiens, UniProt Q9UJQ4-2, residues 1-616)
Technique: universal PBM
Form: double-stranded DNA, one strand shown
Medium: in vitro
Tested at: not given
Setting: 8-mer, flanks averaged, mean of replicates
Direction: higher = stronger binding
Target sequence (chain): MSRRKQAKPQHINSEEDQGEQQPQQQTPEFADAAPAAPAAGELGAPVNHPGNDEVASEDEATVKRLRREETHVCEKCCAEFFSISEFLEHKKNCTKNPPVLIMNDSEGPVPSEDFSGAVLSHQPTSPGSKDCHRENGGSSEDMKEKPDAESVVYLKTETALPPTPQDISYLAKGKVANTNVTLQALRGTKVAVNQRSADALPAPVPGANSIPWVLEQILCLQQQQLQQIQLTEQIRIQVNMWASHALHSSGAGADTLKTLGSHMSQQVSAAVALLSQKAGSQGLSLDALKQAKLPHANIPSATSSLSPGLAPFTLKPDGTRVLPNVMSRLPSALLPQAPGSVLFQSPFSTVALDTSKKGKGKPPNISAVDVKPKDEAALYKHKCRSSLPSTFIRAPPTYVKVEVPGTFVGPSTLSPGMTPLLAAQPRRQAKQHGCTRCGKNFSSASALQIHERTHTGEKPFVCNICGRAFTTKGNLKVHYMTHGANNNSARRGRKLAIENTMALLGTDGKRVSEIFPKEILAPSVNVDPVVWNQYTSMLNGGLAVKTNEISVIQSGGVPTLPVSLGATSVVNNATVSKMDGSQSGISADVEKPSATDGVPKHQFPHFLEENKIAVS
Sequence	E-score
AGCACCAC	-0.257
CGGCCCAG	-0.355
ACCGACCT	-0.246
GAAAGATC	-0.135
GGAAAAAC	0.064
GCGCACAC	-0.192

Study 3
Target: RNA binding protein fox-1 homolog 2, RRM domain, GST-SBP tag (RBFOX2, Homo sapiens, UniProt O43251-10, residues 100-194)
Technique: RNA Bind-n-Seq
Form: RNA
Medium: in vitro
Tested at: 365 nM
Setting: natural RNA segment, single round, ends assumed
Relative to: no-protein control
Direction: higher = stronger binding
Shared flanks, not repeated: GGGAGUUCUACAGUCCGACGAUC … UGGAAUUCUCGGGUGCCAA
Target sequence (chain): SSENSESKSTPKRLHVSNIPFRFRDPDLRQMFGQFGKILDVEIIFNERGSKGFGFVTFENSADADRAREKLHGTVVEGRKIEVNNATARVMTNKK
Sequence	RBNS enrichment (R)
GAACCUGAGAGCCAGAGACUUCUUGGGCCUUCCUGCCUGCCACCCCCUAGGGGCCAGGACAGGACCAGUUUACCUCUUUCCAGAUAUGGUGGUUGGAGGGCUGGUUCAGG	0.282
UCUCCCCACGAAGGUCCCAGGGUGGCCAUUUAUACAAUCCAUUUCUGUCCUCUUUAUGGAAUGUAGUCGACGGAUAUUGCUGCACCUCAUCAGGCCAUUACAUUGUCCAU	1.06
UUUGACAGGGAAGGAAGUAACUGCAAAACACUAGGCUUUAGUAGGUACUUAUAUAAAAUCUAGUCCAGUUCUCUCAUUUAAAAAAAUGAAGACACUGAAAUACAGACUUA	0.368
CUGGAUAGCAGCUAAGGGGACAGACUCUGGAUGUGAGUCUUAGUUUAAAAAGGAAACUACAUGGAGACCAUGCAAAAACAUUUAAAUAAUCCACUGUGCUGUGGCUCGCU	0.552
AAAAGGUUUUUGUAUUAGAAUCUGUUUCCUUAAAAAUUGAUUUGACUCCUGUUCUUAAACACAAGUGGUUUUUCCUAAUUCCAGAGGAACUGGACGUCACCAAACAAGGU	0.419
GUACCAGAUGUCCCAUCCGGCAUCUUUCCAUUGAAUCUUGUAGUGCAACUUGCGUAUCAUCUUCUCCACCUCCAAGUGUCUGAAUGCUUACACAAAUAAAUUUUAUAACU	0.341
UACAGAACUGGGAUGUGAACAUUGGUCAGAGACCCCACCCAUUAGUAGCUGGAGCCUCUGGGCUCCUCAGUCCCAUGCAACAUCCCUGGGACCUGGGGAAGGGAUGCUGA	0.758
CCUCUUCAAGUUGUAACCGUGGCGGCUUUGUCCAUUACUGUUGCUAUUCUGCACACAUAUCGGAAGCAGCAAGCGCUUUACACACUUGAGUAGUGGGAUAAGUCACUGUU	0.268
AACACUAUUCUAACACAGGAGAUAAUGUACUUGGUACUGUUUAUUCAACUGGGGGAAAAUAAAACUUUGAGCAUUUCCCUUGGAACUUGAGAUCAGAUCAUAACUCACUU	0.241

Other studies, line by line
Molecule	target	test	system	conditions	scale	quantity	value
PhoQ, residues 284 288 289 292 302 303 SSTLLI	PhoP, residues 12 14 15 18 19 HEGLL (Escherichia coli, UniProt P23836)	Sort-seq, item: YFP reporter	E. coli	PhoQ-PhoP variant library, with: 10 µM Mg2+	relative to: high Mg2+ state, higher = stronger signaling	fold induction	0.971

Repeated from above (study 1):
Sequence	fitted relative affinity [z-score]
TTAGGACTGGGGACTAGGTTAGTGCTA	-1.07
GACAGACTGCTACTGCTGACGTGCTAG	-0.169
